# Measurements collected from several papers.
# Each numbered part is a random draw from the data of one study; scales do not carry over between parts. Several values in a cell are separate wells, animals, samples, runs or records.
# Chain of UniProt P15056 (whole entry, unmodified, looked up): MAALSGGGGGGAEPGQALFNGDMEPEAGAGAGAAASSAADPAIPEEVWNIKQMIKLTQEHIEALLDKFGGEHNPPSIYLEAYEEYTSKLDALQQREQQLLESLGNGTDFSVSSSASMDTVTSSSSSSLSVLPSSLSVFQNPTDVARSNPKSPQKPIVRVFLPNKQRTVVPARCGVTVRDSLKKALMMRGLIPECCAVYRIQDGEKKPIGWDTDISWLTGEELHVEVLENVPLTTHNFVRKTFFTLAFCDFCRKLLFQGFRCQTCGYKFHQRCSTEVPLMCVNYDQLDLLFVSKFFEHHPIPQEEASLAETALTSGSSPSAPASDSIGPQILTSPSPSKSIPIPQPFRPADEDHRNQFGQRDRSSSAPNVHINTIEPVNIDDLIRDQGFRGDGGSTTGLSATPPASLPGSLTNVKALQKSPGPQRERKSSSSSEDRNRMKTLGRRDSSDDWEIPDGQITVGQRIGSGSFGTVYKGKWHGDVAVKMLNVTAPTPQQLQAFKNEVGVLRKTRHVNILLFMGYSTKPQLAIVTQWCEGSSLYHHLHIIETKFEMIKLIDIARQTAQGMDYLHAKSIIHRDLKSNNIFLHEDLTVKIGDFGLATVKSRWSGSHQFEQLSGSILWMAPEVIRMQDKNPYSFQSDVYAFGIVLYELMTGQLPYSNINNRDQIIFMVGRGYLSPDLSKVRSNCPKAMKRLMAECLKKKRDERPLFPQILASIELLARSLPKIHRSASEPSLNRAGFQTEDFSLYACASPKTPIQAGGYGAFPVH
# Chain of UniProt Q9UBF8 (whole entry, looked up): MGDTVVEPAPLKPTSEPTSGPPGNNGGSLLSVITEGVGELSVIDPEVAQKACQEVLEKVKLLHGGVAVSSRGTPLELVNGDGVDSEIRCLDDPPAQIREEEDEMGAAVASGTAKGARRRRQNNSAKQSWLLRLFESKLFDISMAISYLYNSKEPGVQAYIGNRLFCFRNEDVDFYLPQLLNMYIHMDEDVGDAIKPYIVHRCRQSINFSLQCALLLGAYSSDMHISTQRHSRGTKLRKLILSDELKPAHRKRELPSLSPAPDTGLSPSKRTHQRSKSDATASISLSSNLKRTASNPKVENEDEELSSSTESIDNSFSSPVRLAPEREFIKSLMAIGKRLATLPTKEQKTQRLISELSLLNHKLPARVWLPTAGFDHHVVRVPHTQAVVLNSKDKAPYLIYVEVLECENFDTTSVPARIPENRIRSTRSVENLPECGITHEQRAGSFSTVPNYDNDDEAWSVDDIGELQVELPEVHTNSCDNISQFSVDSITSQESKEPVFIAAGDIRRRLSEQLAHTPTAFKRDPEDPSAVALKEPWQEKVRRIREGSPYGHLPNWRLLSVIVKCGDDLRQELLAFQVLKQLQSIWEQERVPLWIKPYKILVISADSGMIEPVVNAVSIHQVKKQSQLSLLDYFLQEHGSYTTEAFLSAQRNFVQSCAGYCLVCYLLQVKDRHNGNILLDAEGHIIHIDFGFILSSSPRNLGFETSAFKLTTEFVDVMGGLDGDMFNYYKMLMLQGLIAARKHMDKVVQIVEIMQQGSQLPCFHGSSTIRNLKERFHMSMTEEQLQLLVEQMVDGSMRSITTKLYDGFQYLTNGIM
# Chain of UniProt P68400 (whole entry, looked up): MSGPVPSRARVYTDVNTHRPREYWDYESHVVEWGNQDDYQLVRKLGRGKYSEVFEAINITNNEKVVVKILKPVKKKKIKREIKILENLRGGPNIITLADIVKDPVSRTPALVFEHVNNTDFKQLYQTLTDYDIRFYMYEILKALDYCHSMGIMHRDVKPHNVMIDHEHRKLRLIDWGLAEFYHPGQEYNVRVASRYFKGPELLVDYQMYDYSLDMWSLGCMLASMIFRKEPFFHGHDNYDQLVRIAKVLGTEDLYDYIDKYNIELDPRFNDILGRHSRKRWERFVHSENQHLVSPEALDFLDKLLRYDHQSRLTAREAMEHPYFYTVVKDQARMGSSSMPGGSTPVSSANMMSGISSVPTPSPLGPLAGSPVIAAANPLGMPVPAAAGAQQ
# Chain of UniProt P07333 (whole entry, looked up): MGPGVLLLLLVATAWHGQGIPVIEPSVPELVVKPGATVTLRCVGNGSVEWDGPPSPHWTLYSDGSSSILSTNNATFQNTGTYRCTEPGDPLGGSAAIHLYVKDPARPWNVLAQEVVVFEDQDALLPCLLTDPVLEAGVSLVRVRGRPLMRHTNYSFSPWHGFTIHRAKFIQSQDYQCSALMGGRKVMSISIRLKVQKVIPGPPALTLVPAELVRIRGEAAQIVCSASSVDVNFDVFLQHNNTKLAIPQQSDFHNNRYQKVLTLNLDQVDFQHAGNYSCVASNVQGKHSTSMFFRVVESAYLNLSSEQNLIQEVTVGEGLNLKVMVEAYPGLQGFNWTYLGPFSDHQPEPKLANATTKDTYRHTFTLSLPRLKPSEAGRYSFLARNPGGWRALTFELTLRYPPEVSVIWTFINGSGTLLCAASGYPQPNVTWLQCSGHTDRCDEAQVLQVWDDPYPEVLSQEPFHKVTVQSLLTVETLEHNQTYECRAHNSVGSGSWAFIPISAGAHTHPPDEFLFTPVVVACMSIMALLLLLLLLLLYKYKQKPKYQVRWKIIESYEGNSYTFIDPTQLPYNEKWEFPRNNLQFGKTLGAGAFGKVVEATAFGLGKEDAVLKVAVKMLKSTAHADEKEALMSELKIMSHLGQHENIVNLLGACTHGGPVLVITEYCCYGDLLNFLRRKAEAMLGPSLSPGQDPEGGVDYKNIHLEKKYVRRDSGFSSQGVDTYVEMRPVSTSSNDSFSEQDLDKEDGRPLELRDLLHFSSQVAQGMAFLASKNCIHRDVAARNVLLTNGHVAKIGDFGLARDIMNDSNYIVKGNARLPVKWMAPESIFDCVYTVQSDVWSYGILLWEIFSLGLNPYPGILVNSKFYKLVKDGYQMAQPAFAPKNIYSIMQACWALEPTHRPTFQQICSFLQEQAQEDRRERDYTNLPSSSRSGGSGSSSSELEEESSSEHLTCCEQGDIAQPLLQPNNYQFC
# Chain of UniProt P07332 (whole entry, looked up): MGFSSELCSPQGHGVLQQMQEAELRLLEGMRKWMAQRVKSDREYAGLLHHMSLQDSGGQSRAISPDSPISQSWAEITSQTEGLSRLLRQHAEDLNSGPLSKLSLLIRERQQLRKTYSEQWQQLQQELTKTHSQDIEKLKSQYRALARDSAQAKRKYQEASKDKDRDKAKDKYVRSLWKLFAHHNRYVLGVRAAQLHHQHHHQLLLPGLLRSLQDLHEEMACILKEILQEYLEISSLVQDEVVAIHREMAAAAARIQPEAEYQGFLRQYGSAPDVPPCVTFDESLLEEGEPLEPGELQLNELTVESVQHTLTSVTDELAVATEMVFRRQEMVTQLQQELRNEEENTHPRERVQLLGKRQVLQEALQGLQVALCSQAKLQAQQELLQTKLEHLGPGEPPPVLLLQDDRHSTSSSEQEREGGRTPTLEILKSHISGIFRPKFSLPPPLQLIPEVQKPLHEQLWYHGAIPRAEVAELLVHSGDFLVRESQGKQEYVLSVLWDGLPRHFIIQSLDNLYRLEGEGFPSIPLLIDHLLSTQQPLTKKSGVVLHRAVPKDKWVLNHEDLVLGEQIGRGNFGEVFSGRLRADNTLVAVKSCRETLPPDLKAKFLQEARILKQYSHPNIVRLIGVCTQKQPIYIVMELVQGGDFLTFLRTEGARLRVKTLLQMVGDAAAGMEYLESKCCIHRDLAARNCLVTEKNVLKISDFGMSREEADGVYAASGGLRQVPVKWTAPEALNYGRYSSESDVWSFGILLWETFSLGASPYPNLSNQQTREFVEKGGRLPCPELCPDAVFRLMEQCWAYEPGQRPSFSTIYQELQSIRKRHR
# Chain of UniProt Q8NFD2 (whole entry, looked up): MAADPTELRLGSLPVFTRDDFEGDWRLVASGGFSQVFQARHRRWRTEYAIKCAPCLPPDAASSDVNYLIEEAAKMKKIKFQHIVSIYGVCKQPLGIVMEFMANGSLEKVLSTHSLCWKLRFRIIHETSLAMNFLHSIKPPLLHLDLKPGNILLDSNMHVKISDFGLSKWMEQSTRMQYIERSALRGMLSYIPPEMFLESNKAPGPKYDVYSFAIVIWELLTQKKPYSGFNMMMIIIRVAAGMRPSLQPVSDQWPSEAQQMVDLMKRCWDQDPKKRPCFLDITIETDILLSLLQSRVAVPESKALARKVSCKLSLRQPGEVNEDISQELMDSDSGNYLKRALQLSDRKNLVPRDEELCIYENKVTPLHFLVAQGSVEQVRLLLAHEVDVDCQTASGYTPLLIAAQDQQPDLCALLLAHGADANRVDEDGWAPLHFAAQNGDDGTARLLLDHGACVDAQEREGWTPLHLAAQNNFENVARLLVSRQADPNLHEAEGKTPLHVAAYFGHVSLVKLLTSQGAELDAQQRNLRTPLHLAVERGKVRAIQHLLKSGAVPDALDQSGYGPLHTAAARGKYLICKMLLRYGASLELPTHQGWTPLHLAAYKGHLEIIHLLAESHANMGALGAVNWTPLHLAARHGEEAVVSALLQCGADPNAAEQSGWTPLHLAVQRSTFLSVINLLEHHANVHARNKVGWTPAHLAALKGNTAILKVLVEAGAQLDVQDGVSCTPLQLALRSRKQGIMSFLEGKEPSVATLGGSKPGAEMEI
# Chain of UniProt Q9UIK4 (whole entry, looked up): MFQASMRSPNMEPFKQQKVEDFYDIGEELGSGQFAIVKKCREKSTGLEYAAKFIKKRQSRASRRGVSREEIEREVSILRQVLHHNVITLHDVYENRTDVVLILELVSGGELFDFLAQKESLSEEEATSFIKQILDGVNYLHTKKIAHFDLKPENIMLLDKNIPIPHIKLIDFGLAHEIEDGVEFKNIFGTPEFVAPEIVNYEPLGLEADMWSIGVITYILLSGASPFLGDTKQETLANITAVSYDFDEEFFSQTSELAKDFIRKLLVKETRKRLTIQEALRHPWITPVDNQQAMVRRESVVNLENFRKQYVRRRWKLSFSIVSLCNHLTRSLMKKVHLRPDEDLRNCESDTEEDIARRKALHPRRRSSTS

# Sample 1
# Host: human
# Medium: microsomes or S9
# Concentration: 2 µM
# Time: 0.5 h
Compound,remaining compound [%]
CCOc1cc(/C=N/n2cnnc2)ccc1OCCOCCOc1ccc(C)cc1,43.1
Cc1n[nH]c(C)c1Sc1ccccc1-n1cnnc1,84.9
CCN(CC)S(=O)(=O)c1ccc(S(=O)(=O)NCc2cccs2)cc1,13.8
CCNC(=O)N1c2ccc(CC)cc2C(C)=CC1(C)C,0.417
CC1(C)C=C(N(Cc2ncc[nH]2)c2ccc(Cl)c(Cl)c2)c2ccnc(Br)c2O1,3.6
c1ccc2c(c1)Cc1cc(-n3nnc4ccccc43)ccc1-2,11
CC1CCc2c(sc3ncnc(NC(c4nnc5n4CCC5)C(C)C)c23)C1 (stereo not shown),11.2
CC(=O)CCS(=O)(=O)c1ccc(-c2ccc(S(=O)(=O)CCC(C)=O)cc2)cc1,39.3
CC(C)COc1cc(=O)n2c(c1C(=O)NCC1CCCCC1)CCCCC2,0.442
CCOc1cccc(CNCc2cccnc2)c1OCc1ccc(C)cc1,0.578
COc1ccc(-c2cc3cc(C)cc(C)c3o2)cc1OC,> 99
C/C=C/Cn1c(C(=O)c2cc(C)cc(C)c2)c(CC)c(NCCO)nc1=O,35.4

# Sample 2
# Cell line: A-375
# Concentration: 100 µM
# Time: 36 h
SMILES,viability
CN1CCC(=C2c3ccccc3CCc3cccnc32)CC1,79.8%
COc1cc(CNC(=O)CCCC/C=C/C(C)C)ccc1O,12.9%
O=C(O)CCC(=O)c1ccc(-c2ccccc2)cc1,114%
CCCCC1C(=O)N(c2ccccc2)N(c2ccccc2)C1=O,85.2%
CC(=O)OCC(CCn1cnc2cnc(N)nc21)COC(C)=O,104%
CC(C)(C)NC[C@H](O)COc1nsnc1N1CCOCC1,91.7%
COc1ccc(-c2cc(=S)ss2)cc1,87.5%
Cc1cccn2c(=O)c(-c3nnn[nH]3)cnc12,99.9%
O=S(=O)(O)c1cc(O)ccc1O,116%
O=C1[C@H](CC[C@H](O)c2ccc(F)cc2)[C@@H](c2ccc(O)cc2)N1c1ccc(F)cc1,2.5%
CN1CCc2nc(C(=O)N[C@@H]3C[C@@H](C(=O)N(C)C)CC[C@@H]3NC(=O)C(=O)Nc3ccc(Cl)cn3)sc2C1,109% and 106%
Cc1c(-c2ccc(O)cc2)n(Cc2ccc(OCCN3CCCCCC3)cc2)c2ccc(O)cc12,2.28%

# Sample 3
# Compound: CN1CCN(c2cnc3c(C4CCN(C(=O)c5ccc(OC(F)(F)F)cc5N)CC4)ncnc3c2)CC1
# Concentration: 1 µM
target,assay,remaining binding
"Phosphatidylinositol 4,5-bisphosphate 3-kinase catalytic subunit alpha isoform (PIK3CA, Homo sapiens, UniProt P42336, H1047L)","cell-free assay, competition with immobilised ligand",100%
"Ephrin type-A receptor 2 (EPHA2, Homo sapiens, UniProt P29317)","cell-free assay, competition with immobilised ligand",100%
"Tyrosine-protein kinase SYK (SYK, Homo sapiens, UniProt P43405)","cell-free assay, competition with immobilised ligand",100%
"Cyclin-dependent kinase 5 (CDK5, Homo sapiens, UniProt Q00535)","cell-free assay, competition with immobilised ligand",87%
"Vascular endothelial growth factor receptor 3 (FLT4, Homo sapiens, UniProt P35916)","cell-free assay, competition with immobilised ligand",100%
"Death-associated protein kinase 2 (DAPK2, Homo sapiens, UniProt Q9UIK4)","cell-free assay, competition with immobilised ligand",90%
"Tyrosine-protein kinase ABL1, non-phosphorylated (ABL1, Homo sapiens, UniProt P00519, T315I)","cell-free assay, competition with immobilised ligand",100%
"Macrophage colony-stimulating factor 1 receptor (CSF1R, Homo sapiens, UniProt P07333)","cell-free assay, competition with immobilised ligand",100%
"cAMP-dependent protein kinase catalytic subunit alpha (PRKACA, Homo sapiens, UniProt P17612)","cell-free assay, competition with immobilised ligand",100%
"Casein kinase II subunit alpha (CSNK2A1, Homo sapiens, UniProt P68400)","cell-free assay, competition with immobilised ligand",100%
"Serine/threonine-protein kinase B-raf (BRAF, Homo sapiens, UniProt P15056)","cell-free assay, competition with immobilised ligand",100%
"Mitogen-activated protein kinase kinase kinase kinase 3 (MAP4K3, Homo sapiens, UniProt Q8IVH8)","cell-free assay, competition with immobilised ligand",100%
"Ankyrin repeat and protein kinase domain-containing protein 1 (ANKK1, Homo sapiens, UniProt Q8NFD2)","cell-free assay, competition with immobilised ligand",98%
"Tyrosine-protein kinase Fes/Fps (FES, Homo sapiens, UniProt P07332)","cell-free assay, competition with immobilised ligand",100%
"Tyrosine-protein kinase ABL1, phosphorylated (ABL1, Homo sapiens, UniProt P00519, F317I)",binding,99%
"Serine/threonine-protein kinase B-raf (BRAF, Homo sapiens, UniProt P15056, V600E)","cell-free assay, competition with immobilised ligand",100%
"Serine/threonine-protein kinase Sgk1 (SGK1, Homo sapiens, UniProt O00141)","cell-free assay, competition with immobilised ligand",100%
"Mitogen-activated protein kinase kinase kinase kinase 1 (MAP4K1, Homo sapiens, UniProt Q92918)","cell-free assay, competition with immobilised ligand",88%
"Phosphatidylinositol 4-kinase beta (PI4KB, Homo sapiens, UniProt Q9UBF8)","cell-free assay, competition with immobilised ligand",96%

# Sample 4
# Target: Ephrin type-A receptor 6 (EPHA6, Homo sapiens, UniProt Q9UF33)
# Read-out: enzyme activity
# Mode: inhibitor
# Concentration: 0.5 µM
# Relative to: control
# Residues (Q9UF33 1-1036): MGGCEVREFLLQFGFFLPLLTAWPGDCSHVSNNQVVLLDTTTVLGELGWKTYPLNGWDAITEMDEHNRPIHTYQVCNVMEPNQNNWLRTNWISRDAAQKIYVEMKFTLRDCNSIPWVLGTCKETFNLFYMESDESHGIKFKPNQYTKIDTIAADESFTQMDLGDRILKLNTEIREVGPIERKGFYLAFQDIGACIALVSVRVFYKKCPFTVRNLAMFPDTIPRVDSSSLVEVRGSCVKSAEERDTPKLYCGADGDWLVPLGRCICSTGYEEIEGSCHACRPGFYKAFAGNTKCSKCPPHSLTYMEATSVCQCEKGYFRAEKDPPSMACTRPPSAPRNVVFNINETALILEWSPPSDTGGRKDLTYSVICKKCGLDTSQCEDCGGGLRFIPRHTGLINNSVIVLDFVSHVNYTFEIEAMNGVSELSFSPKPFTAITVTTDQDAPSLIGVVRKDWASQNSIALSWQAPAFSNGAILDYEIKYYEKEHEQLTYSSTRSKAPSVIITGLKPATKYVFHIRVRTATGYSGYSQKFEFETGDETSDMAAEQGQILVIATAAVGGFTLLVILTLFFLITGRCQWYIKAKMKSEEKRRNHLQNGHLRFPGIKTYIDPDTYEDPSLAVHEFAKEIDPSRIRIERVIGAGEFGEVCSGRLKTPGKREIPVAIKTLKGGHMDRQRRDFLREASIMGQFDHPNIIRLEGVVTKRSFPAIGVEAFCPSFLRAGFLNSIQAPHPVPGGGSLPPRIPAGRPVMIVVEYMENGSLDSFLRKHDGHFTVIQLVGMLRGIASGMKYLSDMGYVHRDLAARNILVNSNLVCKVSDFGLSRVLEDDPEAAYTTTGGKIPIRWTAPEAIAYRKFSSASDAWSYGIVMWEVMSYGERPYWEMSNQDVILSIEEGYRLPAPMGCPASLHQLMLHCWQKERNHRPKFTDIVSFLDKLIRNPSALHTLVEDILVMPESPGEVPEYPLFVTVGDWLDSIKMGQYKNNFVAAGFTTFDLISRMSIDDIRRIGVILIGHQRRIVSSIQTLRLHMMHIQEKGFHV
SMILES,remaining activity [%]
N#Cc1c(NC(=O)c2cccc3ccccc23)sc2c1CCCC2,93.4
CCOc1nc(NC(=O)Cc2cc(OC)ccc2OC)cc(N)c1C#N,89.5
CCN(CC)CCNC(=O)c1c(C)[nH]c(/C=C2\C(=O)Nc3ccc(F)cc32)c1C,29.5
CCN(CC)CCNC(=O)c1c(C)[nH]c(/C=C2\C(=O)Nc3ccc(Cl)cc32)c1C,45.7
CN(C)C[C@H]1CCn2c(c(C3=C(c4cn(C)c5ccccc45)C(=O)NC3=O)c3ccccc32)C1,100
N#C/C(=C\c1ccc(O)c(O)c1)C(=O)NCc1ccccc1,95.7
c1ccc(-c2[nH]ncc2-c2ccnc3ccccc23)nc1,98.8
Cn1nc2c3c(cccc31)C(=O)c1ccccc1-2,87.6
O=C1C(Cl)=C(N2C(=O)CCC2=O)C(=O)c2ccccc21,89.5
COc1cc2c(cc1OC)-c1[nH]nc(Nc3cccc(F)c3)c1C2,82.7
COc1cc2ncnc(Nc3cccc(Cl)c3)c2cc1OC,27.8
Cc1cc2ncc(-c3ccccc3)nc2cc1C,93
